# Results pooled from the literature.
# Compare with care: the assays were run in different laboratories. ± marks the error that the study gave.
Compound,test,test system,conditions,how to read,quantity,result
CNc1ccc(-c2nc3ccc(O)cc3s2)cc1 [carbon-11 labelled],ex vivo biodistribution,"APP/PS1 mouse, AD model, bone","intravenous, 30 min",,SUV,0.146 ± 0.051
Cc1nc(C)c(-c2ccnc(Nc3ccc(N(C)C)c(Cl)c3)n2)s1,,octanol/buffer,pH 11,,logP,4.3
O=C(Nc1nc2cccc(-c3ccc(CN4CCS(=O)(=O)CC4)cc3)n2n1)C1CC1,,rheumatoid arthritis patients,"oral, 100 mg twice daily, 4 weeks, TEAE regardless of relatedness",,patients with Diarrhea,0%
CC(C)=CCC1=C(O)C(=O)c2ccccc2C1=O,cyclic voltammetry,"CH2Cl2, Bu4NPF6",0.1 mM,baseline: Ag/AgCl sat. KOH,Epc2 cathodic peak potential,-0.42 V
O=C(Cc1ccc(-c2cccs2)cc1)Nc1cc(C2CC2)[nH]n1,,"octanol/buffer, 40 mM buffer",pH 11,,logP,4.19
NC1(C(=O)N[C@@H](CCO)c2ccc(Cl)cc2)CCN(c2nc[nH]c3nccc2-3)CC1,,metastatic CRPC patients,"400 mg b.i.d., any grade, treatment-related, added: enzalutamide 160 mg daily",,incidence of Diarrhoea,57.1%
CN(C(=O)n1cnc(-c2ccc[n+]([O-])c2)c1)[C@H]1CC[C@H](O)CC1,,"Wistar rat, medulla oblongata","oral, 10 mg/kg of BIA 10-2474, 24 h, single dose",,concentration,13.3 ± 0.3 ng/g
Cc1cc(C)c(CNC(=O)c2cc(Cl)c3c(c2C)O[C@@](C)([C@H]2CC[C@H](N(C)C)CC2)O3)c(=O)[nH]1,CTCAE v4.0,human relapsed/refractory NHL,"oral, 200 mg once daily, onset after cycle 1 day 1, overall treatment period",,patients with TEAEs,100%
N[C@H]1C(O)O[C@H](CO)[C@@H](O)[C@@H]1O (stereo partly drawn),,aqueous solution,"20 mM, added: glucose",,osmolality,17 mOsmol/kg
COc1c(OCCCN2CCOCC2)ccc2c1N=C(NC(=O)c1cnc(N)nc1)N1CCN=C21,,human,,baseline: females over males,decrease in clearance,16.7%
Cc1ccc([C@@H]2O[C@H](CO)[C@@H](O)[C@H](O)[C@H]2O)cc1Cc1ccc(-c2ccc(F)cc2)s1,,Japanese type 2 diabetes patients,"100 mg, day 4, 24 h urine collection",baseline: baseline,urinary sodium excretion change,61.8 mEq
O=C(Cc1ccc(OCCN2CCCC2)cc1)Nc1cc(C2CC2)[nH]n1,,"octanol/buffer, 40 mM buffer",pH 11,,logP,2.86
Cn1cc(-c2cn3nccc3c(-c3cnn([C@]4(CC#N)C[C@@H](C#N)C4)c3)n2)cn1,,"healthy humans fasted, plasma","oral, 10 mg single dose, geometric mean",,dose-normalised AUC(0-t),35.5 ng·h/mL/mg
Cl.[2H]C([2H])([2H])CC(=O)c1cnc(NC(=O)C2CC2)cc1Nc1cccc(-c2ncn(C([2H])([2H])[2H])n2)c1OC,geometric mean,human,"20 mg once daily, day 1, fasted, liquid, multiple dose",,CL/F,16.5 L/h
O=C1NCCc2nc(OCc3cccc(F)c3)ccc21,measured: Irritability,"Sprague-Dawley rat, male","oral, 100 mg/kg, 1 h, score 0 none to 2 full",direction not given,Irwin test score,0
O=C(O)[C@H]1O[C@@H](Oc2cc(-c3oc4cc(O)cc(O)c4c(=O)c3O)ccc2O)[C@H](O)[C@@H](O)[C@@H]1O,,"human, cerebrospinal fluid","concentration not given, mean",,CSF concentration,4.5 nM
CCn1ncc2c1-c1cnc(N)c(c1)O[C@H](C)c1cc(F)ccc1-c1nn(C)nc1C2,,"female athymic nude mice, sample B PDX","oral, 5 mg/kg twice daily for 21 days, 1 h",,unbound plasma concentration,325 ± 24 nM
CO[C@H]1/C=C/O[C@@]2(C)Oc3c(C)c(O)c4c(O)c(c(/C=N/N5CCN(C)CC5)c(O)c4c3C2=O)NC(=O)/C(C)=C\C=C\[C@H](C)[C@H](O)[C@@H](C)[C@@H](O)[C@@H](C)[C@H](OC(C)=O)[C@@H]1C,,healthy humans,"oral, dose not given",,adverse event Chromaturia,29.2%
CCc1cc(C(=O)NC)c2nccc(N3CCc4c(cc(Cn5ccnc5)cc4-c4cn(C)nc4C(F)(F)F)C3=O)c2c1,measured: HGB,Sprague Dawley rat,"oral, 50 mg/kg once daily, 7 days",baseline: vehicle,change in clinical chemistry or haematology parameter,2.45%
CC(C)n1c(Nc2cccnc2)nc2cnc(Nc3ccc(N4CCN(C)CC4)cc3)nc21,,"human, male, plasma","oral, dose not given, added: gemfibrozil",baseline: without gemfibrozil,increase in Cmax,~21%
C=CC(=O)Nc1cc(Nc2nccc(Nc3cc(Cl)c(F)cc3C(C)(C)O)n2)c(OC)cc1N1CC[C@@H](N(C)C)C1,,"human patients, plasma","oral, 200 mg daily, cycle 2 day 1, geometric mean",,"Css,max",402 ng/mL
Cc1cc(-c2nccc3c2ccn3CC(=O)Nc2ccc(-c3cnccn3)cn2)ccn1,measured: AUCtau,"human, plasma","oral, 20 mg once daily",baseline: day 16 over day 1,accumulation ratio,1.93
CC[C@@](O)(c1cnc(C(F)(F)F)c(Cl)c1)c1c2cnn(C3CC3)c(=O)c2nn1C,,"rat Sprague-Dawley male, blood","intravenous, 1 mg/kg",,"CLint,u",14.9 mL/min/kg
C=CC(=O)Nc1cc(Nc2nccc(-c3cn(C)c4ccccc34)n2)c(OC)cc1N(C)CCN(C)C,storage stability,human plasma,"72 h, on ice, LLOQ level",,recovery,71.8%
O=C(Nc1ccc(OC(F)(F)Cl)cc1)c1cnc(N2CC[C@@H](O)C2)c(-c2ccn[nH]2)c1,"per laboratory record, measured: AST increase",human patients,"oral, dose not given",,grade ≥2 event rate,0.1%
O=C(Nc1cnccc1Cl)N1CCN(Cc2ccc3c(c2)OC(F)(F)O3)CC1,,"healthy young men, plasma","oral, 10 mg once daily, day 10",,tmax (median),1 h
CCNCCc1ccc(CN(CC)c2cc(OC)ccc2[C@@H]2CCc3cc(O)ccc3C2)cc1,,"mouse, non-tumour-bearing, brain","oral, dose not given, 7 days daily, added: fulvestrant s.c.",,total brain concentration,243 nmol/L
CNC(=O)c1ccc(-c2cnc3ncc(Cc4ccc5ncccc5c4)n3n2)cc1F,,gastric cancer patients,"oral, 600 mg twice daily, all grades RP2D expansion",,ALT increased incidence,11%
C=CC[C@@H]1/C=C(\C)C[C@H](C)C[C@H](OC)[C@H]2O[C@@](O)(C(=O)C(=O)N3CCCC[C@H]3C(=O)O[C@H](/C(C)=C/[C@@H]3CC[C@@H](O)[C@H](OC)C3)[C@H](C)[C@@H](O)CC1=O)[C@H](C)C[C@@H]2OC,,"rat, Wistar Kyoto, male","intraperitoneal, 0.5 mg/kg/day, day 18",,food intake,20.6 ± 1.8 g/24 h
COC(=O)c1ccccc1NC(=O)CSc1nnc(-c2ccc(OC)cc2)n1C,,octanol/buffer,"pH 11, known kinase inactives set",,logP,2.73
O=C(OC(C(F)(F)F)C(F)(F)F)N1CCN(Cc2cccc(Oc3ccccc3)c2)CC1,PET blocking study,"rhesus monkey, brain OCC","0.3 mg/kg, compound pretreatment, added: [18F]T-401 tracer",,k2,0.138 min⁻¹
C[C@@H](Oc1cc(-c2cnn(C3CCNCC3)c2)cnc1N)c1c(Cl)ccc(F)c1Cl,,"patients, plasma","oral, dose not given, cycle 2 day 1, added: avelumab",,"dose-normalised Cmax, median",1 ng/mL/mg
CNC(=O)c1ccc(-c2cnc3ncc(Cc4ccc5ncccc5c4)n3n2)cc1F,,human severe hepatic impairment,"oral, 200 mg single dose, adjusted geometric mean",,unbound Cmax,74.3 ng/mL
CC(=O)N[C@@H](CCCNC(=N)N)C(=O)N[C@H]1CSSC[C@@H](C(N)=O)NC(=O)[C@H](Cc2c[nH]c3ccccc23)NC(=O)[C@H](CCCNC(=N)N)NC(=O)[C@@H](Cc2ccccc2)NC(=O)[C@H](Cc2c[nH]cn2)NC(=O)[C@@H](C)NC1=O,,telemetered cynomolgus monkeys,"subcutaneous, 3 mg/kg",,nighttime blood pressure,increased
FC(F)(F)c1ccc(CNc2ccc(Cc3c[nH]c4ncc(Cl)cc34)cn2)cn1,,patients with advanced solid tumours,"oral, 1000 mg/day, TGCT cohort, grade ≥3",,decreased appetite incidence,0%
CCN1CCN(Cc2ccc(Nc3ncc(F)c(-c4cc(F)c5nc6n(c5c4)[C@H](C)CCC6)n3)nc2)CC1,,"human, plasma","100 mg single dose, mean",,Vd/F,2000 L

# Repeated from above:
Compound,test,test system,conditions,how to read,quantity,result
CC(C)n1c(Nc2cccnc2)nc2cnc(Nc3ccc(N4CCN(C)CC4)cc3)nc21,,"human, male, plasma","oral, dose not given, added: gemfibrozil",baseline: without gemfibrozil,increase in Cmax,~21%
O=C(Nc1ccc(OC(F)(F)Cl)cc1)c1cnc(N2CC[C@@H](O)C2)c(-c2ccn[nH]2)c1,"per laboratory record, measured: AST increase",human patients,"oral, dose not given",,grade ≥2 event rate,0.1%
CC(=O)N[C@@H](CCCNC(=N)N)C(=O)N[C@H]1CSSC[C@@H](C(N)=O)NC(=O)[C@H](Cc2c[nH]c3ccccc23)NC(=O)[C@H](CCCNC(=N)N)NC(=O)[C@@H](Cc2ccccc2)NC(=O)[C@H](Cc2c[nH]cn2)NC(=O)[C@@H](C)NC1=O,,telemetered cynomolgus monkeys,"subcutaneous, 3 mg/kg",,nighttime blood pressure,increased
Cn1cc(-c2cn3nccc3c(-c3cnn([C@]4(CC#N)C[C@@H](C#N)C4)c3)n2)cn1,,"healthy humans fasted, plasma","oral, 10 mg single dose, geometric mean",,dose-normalised AUC(0-t),35.5 ng·h/mL/mg
C=CC[C@@H]1/C=C(\C)C[C@H](C)C[C@H](OC)[C@H]2O[C@@](O)(C(=O)C(=O)N3CCCC[C@H]3C(=O)O[C@H](/C(C)=C/[C@@H]3CC[C@@H](O)[C@H](OC)C3)[C@H](C)[C@@H](O)CC1=O)[C@H](C)C[C@@H]2OC,,"rat, Wistar Kyoto, male","intraperitoneal, 0.5 mg/kg/day, day 18",,food intake,20.6 ± 1.8 g/24 h
